{"data": "Results gathered from unrelated publications", "organism": "Trypanosoma brucei", "note": "Compare with care: the assays were run in different laboratories."}
{"Structure (SMILES)": "COc1cc(N2C(=O)CN(Cc3ccc(F)cc3Cl)C2=S)ccc1N(C)C", "observed": "parasite growth", "technique": "resazurin", "time": "48 h", "EC50 [nM]": 2}
{"Structure (SMILES)": "Cc1ccc(C(=O)Nc2ccc(S(=O)(=O)O)c3cc(S(=O)(=O)O)cc(S(=O)(=O)O)c23)cc1NC(=O)c1cccc(NC(=O)Nc2cccc(C(=O)Nc3cc(C(=O)Nc4ccc(S(=O)(=O)O)c5cc(S(=O)(=O)O)cc(S(=O)(=O)O)c45)ccc3C)c2)c1", "observed": "parasite growth", "time": "24 h", "EC50 [nM]": 360}
{"Structure (SMILES)": "O=C(Nc1ccc2oc(-c3ccccc3)nc2c1)N1CCCC1", "observed": "parasite growth", "technique": "resazurin", "time": "48 h", "EC50 [nM]": "≥ 2800"}
{"Structure (SMILES)": "N[C@H](C(=O)O)[C@@H]1CC(Cl)=NN1Cc1ccccc1 (relative stereo)", "observed": "parasite growth", "technique": "resazurin", "time": "72 h", "EC50 [nM]": "> 500000"}
{"Structure (SMILES)": "O=C(Nc1nc2cc(-c3ccc(F)c(F)c3)ccc2s1)N1CCC(F)C1 (centres unmarked)", "observed": "parasite growth", "technique": "resazurin", "time": "48 h", "EC50 [nM]": "> 2000"}
{"Structure (SMILES)": "COc1ccc2c(C[Se][C@@H]3O[C@H](CO)[C@@H](O)[C@H](O)[C@H]3O)cc(=O)oc2c1", "observed": "parasite growth", "time": "24 h", "EC50 [nM]": "~5000"}
{"Structure (SMILES)": "Cc1cccc(C)c1Nc1nc(N)c(C(=O)c2ccccc2)s1", "observed": "cell proliferation", "technique": "resazurin", "strain": "bloodstream form", "time": "73 h", "EC50 [nM]": 9000}
{"Structure (SMILES)": "O=C(NCCc1nc(-c2cccc(F)c2)cs1)N1CCCC(F)C1 (centres unmarked)", "observed": "parasite growth", "EC50 [nM]": "< 50"}
{"Structure (SMILES)": "Cc1ccc(Nc2nc(N)c(C(=O)c3ccccc3)s2)cc1C", "observed": "cell proliferation", "technique": "resazurin", "strain": "bloodstream form", "time": "73 h", "EC50 [nM]": 200}
{"Structure (SMILES)": "Cc1ccc(C(=O)Nc2ccc(S(=O)(=O)O)c3cc(S(=O)(=O)O)cc(S(=O)(=O)O)c23)cc1NC(=O)c1cccc(NC(=O)Nc2cccc(C(=O)Nc3cc(C(=O)Nc4ccc(S(=O)(=O)O)c5cc(S(=O)(=O)O)cc(S(=O)(=O)O)c45)ccc3C)c2)c1", "observed": "parasite growth", "technique": "resazurin", "time": "48 h", "EC50 [nM]": 40}
{"Structure (SMILES)": "Nc1nc(NCC2CCCCC2)sc1C(=O)c1ccccc1", "observed": "cell proliferation", "technique": "resazurin", "strain": "bloodstream form", "time": "73 h", "EC50 [nM]": 400}
{"Structure (SMILES)": "CCN1N=C(Cl)C[C@@H]1[C@H](N)C(=O)O (relative stereo)", "observed": "parasite growth", "technique": "resazurin", "time": "72 h", "EC50 [nM]": 89800}
{"Structure (SMILES)": "COc1cccc(OC)c1C(=O)c1sc(Nc2ccccc2)nc1N", "observed": "cell proliferation", "technique": "resazurin", "strain": "bloodstream form", "time": "73 h", "EC50 [nM]": 400}
{"Structure (SMILES)": "O=C(N[C@H](C(=O)O)[C@@H]1CC(Br)=NO1)OCc1ccccc1", "observed": "parasite growth", "technique": "resazurin", "time": "72 h", "EC50 [nM]": "> 100000"}
{"Structure (SMILES)": "Nc1nc(Nc2ccccc2)sc1C(=O)c1cccc(Br)c1", "observed": "cell proliferation", "technique": "resazurin", "strain": "bloodstream form", "time": "73 h", "EC50 [nM]": 200}
{"Structure (SMILES)": "O=C(NCCc1nc(-c2cccc(F)c2)cs1)N1CCC(F)CC1", "observed": "parasite growth", "EC50 [nM]": "< 50"}
{"Structure (SMILES)": "COC1=NO[C@H]([C@H](N)C(=O)O)C1", "observed": "parasite growth", "technique": "resazurin", "time": "72 h", "EC50 [nM]": "> 100000"}
{"note": "Excerpt of the above:"}
{"Structure (SMILES)": "CCN1N=C(Cl)C[C@@H]1[C@H](N)C(=O)O (relative stereo)", "observed": "parasite growth", "technique": "resazurin", "time": "72 h", "EC50 [nM]": 89800}
{"Structure (SMILES)": "COc1cccc(OC)c1C(=O)c1sc(Nc2ccccc2)nc1N", "observed": "cell proliferation", "technique": "resazurin", "strain": "bloodstream form", "time": "73 h", "EC50 [nM]": 400}
